Assay results collected from several papers.
Numbered parts are unrelated; each lists some results of a single study. Positions count from the first letter of the parent shown.

Series 1
Target: RING finger protein unkempt homolog, zinc fingers 1-6, GST-SBP tag (UNK, Homo sapiens, UniProt Q9C0B0, residues 30-357)
Method: RNA Bind-n-Seq
Molecule type: RNA
Sample: in vitro
Tested at: not given
Notes: RNA with constant flanks, ends assumed
Reference: input RNA pool
Reading: higher = stronger binding
Residues (chain): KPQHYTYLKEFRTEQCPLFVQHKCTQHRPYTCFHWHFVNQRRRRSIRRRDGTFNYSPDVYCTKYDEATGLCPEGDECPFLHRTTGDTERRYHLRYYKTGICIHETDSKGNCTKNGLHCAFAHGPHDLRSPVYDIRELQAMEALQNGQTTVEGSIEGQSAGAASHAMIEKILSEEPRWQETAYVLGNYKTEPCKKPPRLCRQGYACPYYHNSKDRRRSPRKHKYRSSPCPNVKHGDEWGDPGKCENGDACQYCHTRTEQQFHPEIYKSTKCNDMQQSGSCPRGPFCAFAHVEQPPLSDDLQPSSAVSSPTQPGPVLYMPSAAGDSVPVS
With `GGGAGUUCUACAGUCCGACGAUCAAAAUUGGUAUCGUUGGAUUGCCAAAUGUUGGGAAGUCUACCUUCUUCAAUGUAUUAACCAACCGUCAGGCUUCAGCAGAAAACUUCCCAUUCUGCACUAUUGAUCCUAAUGAGAGCAGACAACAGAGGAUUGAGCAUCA` the bound/input enrichment was 0.2 ratio.
With `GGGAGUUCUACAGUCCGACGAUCAGAUUCAAACCUGUGGUACCAUGGCCUCAUGUUGAAGGAGUAGAAGUGGACUUAGAGUCUAUCCGAAGAAAAAACAAAGCCAAAAAUGAACAGGAGCGCCAUGCUGGAGGAGAUUCCCAGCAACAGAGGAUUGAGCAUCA` the bound/input enrichment was 0.64 ratio.
The bound/input enrichment of `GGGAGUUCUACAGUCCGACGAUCUACUGUACCUCCACCCUGCGCCACUUCUUGCCUCUACUGGAAAGAAGUCAAGGAGAAGAUACCGAAGACGACCACAGGGCAGAGCUGUUGAAGCAGCUGGGGGACUACAGGUUCUCUGGACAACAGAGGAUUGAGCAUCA` is reported as 0.0917 ratio.
The bound/input enrichment of `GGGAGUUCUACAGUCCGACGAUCAAUAAAUUGGAAUUUAAAAAUAUCGAUAUCACCAUGAUUUAAUCCAGAUCUGGGAUUAUGCCGCUAAACAUUGUGAUGAUUAUUAUUUAAAACCAUUAUUUAAUAAGAGUAAAAAUAUGUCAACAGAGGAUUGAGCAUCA` is reported as 0.668 ratio.
With `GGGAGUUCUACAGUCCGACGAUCGUAAAUUAAAAUAUAAAUUCAUAUAAAUUCUGAAACCCAUACUUGAACAAUGUGAGGAGACCGUUAAGGGGGAAAUCAAGGGUAAACUUGAUGUUUUCUACACAUGUUGACAGUAAGUGUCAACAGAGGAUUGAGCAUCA` the bound/input enrichment was 1.71 ratio.
With `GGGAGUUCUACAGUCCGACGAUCACUAACAAAAGUGCCUCAUCAUAAAAAUACAGUUGGUUUUUAGGGUGCCAUAUUGUUAAAAUCCGAUAACUUACUUACAUUGAAUAAACGAAUGCGUUUUAUUGGUAACAGAUAUCAUUACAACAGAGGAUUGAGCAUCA` the bound/input enrichment was 0.147 ratio.
With `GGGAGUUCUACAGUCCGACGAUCACUGCCUUUACCCUGCUGUAUAAUAAACAACCAGACACUUGGCAACUGUUGAUACAGAUGGCCGUCCCGAAUCACUUUUUAUAUGUUUUAACAUUUGAAAUUCAAGUGUACCUGCCAUAACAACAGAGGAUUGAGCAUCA` the bound/input enrichment was 0.19 ratio.
The bound/input enrichment of `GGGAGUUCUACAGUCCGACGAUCAAGUACUUAGCCCAGCUGCUGAACAGUGUACGGUUACCAUUGCUGAGCGUUAAGUUCCUCACCCGGCUCUAUGAAGCGAAUCAUCUUAUCCGUGAUGAUCGCACCUGUAAACAUCUCUUGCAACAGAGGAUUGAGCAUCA` is reported as 0.0994 ratio.

Series 2
Target: Homeobox protein Hox-B13, full length (HOXB13, Homo sapiens, UniProt Q92826, residues 1-284)
Sequence of UniProt Q92826 (whole entry, looked up): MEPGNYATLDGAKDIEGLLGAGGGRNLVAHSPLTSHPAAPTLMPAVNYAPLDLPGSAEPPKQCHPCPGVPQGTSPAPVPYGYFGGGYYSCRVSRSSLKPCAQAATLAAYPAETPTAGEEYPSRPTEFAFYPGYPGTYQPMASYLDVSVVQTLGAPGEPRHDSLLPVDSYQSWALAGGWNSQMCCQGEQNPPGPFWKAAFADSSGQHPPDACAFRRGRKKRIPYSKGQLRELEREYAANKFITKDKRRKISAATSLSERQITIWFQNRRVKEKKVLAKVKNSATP
Method: protein-binding microarray
Molecule type: hairpin DNA
Sample: in vitro
Tested at: not given
Notes: whole hairpin DNA, median over replicate spots
Reference: not given
Reading: higher = stronger binding
The median fluorescence of `GAGGCCGTTTTACGAGGGCCTCCTGGCCCTCGTAAAACGGCCTCACACTC (5mC at 13 31)` is reported as 5560 a.u.
With `GAGGCCGTTCTATTGGGGCCTCCTGGCCCCAATAGAACGGCCTCACACTC (5mC at 10)` the median fluorescence was 4070 a.u.
The median fluorescence of `GAGGCCGGTTTACGAGGGCCTCCTGGCCCTCGTAAACCGGCCTCACACTC` is reported as 5470 a.u.
`GAGGCCGTTTTACTAGGGCCTCCTGGCCCTAGTAAAACGGCCTCACACTC` has a median fluorescence of 4480 a.u.
`GAGGCCGTTTGACGAGGGCCTCCTGGCCCTCGTCAAACGGCCTCACACTC` gave a median fluorescence of 4330 a.u.
With `GAGGCCCGTTTATTGGGGCCTCCTGGCCCCAATAAACGGGCCTCACACTC (5mC at 7 37)` the median fluorescence was 4620 a.u.
The median fluorescence of `GAGGCCGTCTTATTGGGGCCTCCTGGCCCCAATAAGACGGCCTCACACTC (5mC at 9)` is reported as 4250 a.u.
For `GAGGCCGTTTTACGAGGGCCTCCTGGCCCTCGTAAAACGGCCTCACACTC (5mC at 38)`, the median fluorescence was 5490 a.u.

Single results of other studies
P1: PafA, mature enzyme, eGFP fusion (Elizabethkingia meningoseptica, UniProt Q9KJX5); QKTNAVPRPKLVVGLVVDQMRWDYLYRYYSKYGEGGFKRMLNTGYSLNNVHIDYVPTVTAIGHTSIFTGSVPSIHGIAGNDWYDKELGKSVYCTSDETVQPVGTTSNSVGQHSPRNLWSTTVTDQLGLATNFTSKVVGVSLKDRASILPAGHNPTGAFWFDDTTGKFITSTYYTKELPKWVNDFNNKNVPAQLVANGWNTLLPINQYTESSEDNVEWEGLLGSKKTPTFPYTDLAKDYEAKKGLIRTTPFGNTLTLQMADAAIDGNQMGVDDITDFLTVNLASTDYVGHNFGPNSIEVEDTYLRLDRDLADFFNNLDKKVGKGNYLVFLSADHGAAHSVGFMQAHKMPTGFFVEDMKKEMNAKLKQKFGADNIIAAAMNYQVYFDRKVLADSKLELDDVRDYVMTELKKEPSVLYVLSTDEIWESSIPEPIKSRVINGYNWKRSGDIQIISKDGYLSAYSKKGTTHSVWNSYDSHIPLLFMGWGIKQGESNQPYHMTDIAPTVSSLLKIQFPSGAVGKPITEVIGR
Under cross-linked residues, `H1-2 (Homo sapiens, UniProt P16403)` is recorded as “K148 to K908” (EP400 (Homo sapiens, UniProt Q96L91); cross-linking MS; cell fractions; together with: DSSO).
Under “oxyanion analog dissociation constant”, `P1 L254V` is recorded as 2.37 µM (tungstate, free oxyanion; microfluidic competitive inhibition; in vitro, cell-free expressed; not given, derived from inhibition constants, unchanged parent 2230 nM; lower = stronger binding).
`REV3L (Homo sapiens, UniProt O60673)` — result for cross-linked residues: “T2480 to K305” (ATP5F1A (Homo sapiens, UniProt P25705); cross-linking MS; cell fractions; together with: DSSO).
`HNRNPDL (Homo sapiens, UniProt O14979)` — result for cross-linked residues: “K142 to S88” (EIF4B (Homo sapiens, UniProt P23588); cross-linking MS; cell fractions; together with: DSSO).
Under cross-linked residues, `PAXIP1 (Homo sapiens, UniProt Q6ZW49)` is recorded as “K244 to K264” (WDR33 (Homo sapiens, UniProt Q9C0J8); cross-linking MS; cell fractions; together with: DSSO).

Some of these lines once more (series 1):
With `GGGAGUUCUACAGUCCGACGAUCACUAACAAAAGUGCCUCAUCAUAAAAAUACAGUUGGUUUUUAGGGUGCCAUAUUGUUAAAAUCCGAUAACUUACUUACAUUGAAUAAACGAAUGCGUUUUAUUGGUAACAGAUAUCAUUACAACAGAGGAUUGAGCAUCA` the bound/input enrichment was 0.147 ratio.
The bound/input enrichment of `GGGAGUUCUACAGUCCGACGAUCAAUAAAUUGGAAUUUAAAAAUAUCGAUAUCACCAUGAUUUAAUCCAGAUCUGGGAUUAUGCCGCUAAACAUUGUGAUGAUUAUUAUUUAAAACCAUUAUUUAAUAAGAGUAAAAAUAUGUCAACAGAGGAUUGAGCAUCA` is reported as 0.668 ratio.
